Experimental data pooled from the literature.
Each line is one published result; not all experiments were run side by side. Numbers after ± are the reported error.

COc1cc(OC)cc(C2=C3c4ccccc4C(c4ccc(NC(=S)S[C@@H]5O[C@H](CO)[C@@H](O)[C@H](O)[C@H]5O)cc4)=[N+]3[B-](F)(F)n3c2c2ccccc2c3-c2ccc(NC(=S)NCCOCCOCCOCCC(=O)N[C@@H](CC(C)C)C(=O)N[C@@H](C)C(=O)N[C@@H](CCCNC(=N)N)C(=O)N[C@@H](CC(C)C)C(=O)N[C@@H](CC(C)C)C(=O)N[C@H](C(N)=O)[C@@H](C)O)cc2)c1 — absorption maximum (DMSO): 657 nm
N=C(N)NCCC[C@@H]1NC(=O)[C@H](CCCCNC(=O)CCOCCOCCOCCOCCNC(=O)CN2CCN(CC(=O)O)CCN(CC(=O)O)CCN(CC(=O)O)CC2)NC(=O)[C@@H](Cc2ccccc2)NC(=O)[C@H](CC(=O)O)NC(=O)CNC1=O [indium-111 labelled] — tumour to tissue ratio (athymic nude mice, female, U-87 MG glioma xenograft, tumour and lungs; intravenous, 4 h; baseline: tumour over lungs): 4.36 ± 0.68
CCCC[C@H](NC(=O)CNC(=O)CNC(=O)c1ccc(NN)nc1)C(=O)N[C@H]1CC(=O)NCCCC[C@@H](C(N)=O)NC(=O)[C@H](Cc2c[nH]c3ccccc23)NC(=O)[C@H](CCCNC(=N)N)NC(=O)[C@@H](Cc2ccccc2)NC(=O)[C@H](Cc2c[nH]cn2)NC1=O [technetium-99m labelled] — tissue uptake (C57 mouse, B16/F1 melanoma-bearing, liver; intravenous, 4 h): 0.6 ± 0.19 %ID/g
N=C(N)NCCC[C@@H]1NC(=O)[C@H](CCCCNC(=O)CCOCCOCCOCCOCCNC(=O)CC[C@H](NC(=O)CCOCCOCCOCCOCCNC(=O)CC[C@H](NC(=O)CN2CCN(CC(=O)O)CCN(CC(=O)O)CCN(CC(=O)O)CC2)C(=O)NCCOCCOCCOCCOCCC(=O)N[C@@H](CCC(=O)NCCOCCOCCOCCOCCC(=O)NCCCC[C@@H]2NC(=O)[C@@H](Cc3ccccc3)NC(=O)[C@H](CC(=O)O)NC(=O)CNC(=O)[C@H](CCCNC(=N)N)NC2=O)C(=O)NCCOCCOCCOCCOCCC(=O)NCCCC[C@@H]2NC(=O)[C@@H](Cc3ccccc3)NC(=O)[C@H](CC(=O)O)NC(=O)CNC(=O)[C@H](CCCNC(=N)N)NC2=O)C(=O)NCCOCCOCCOCCOCCC(=O)NCCCC[C@@H]2NC(=O)[C@@H](Cc3ccccc3)NC(=O)[C@H](CC(=O)O)NC(=O)CNC(=O)[C@H](CCCNC(=N)N)NC2=O)NC(=O)[C@@H](Cc2ccccc2)NC(=O)[C@H](CC(=O)O)NC(=O)CNC1=O [indium-111 labelled] — tissue uptake (athymic nude mice, female, U-87 MG glioma xenograft, U-87 MG tumour; intravenous, 3 µCi, 24 h): 6.86 ± 1.87 %ID/g
CSCC[C@H](NC(=O)[C@H](CC(C)C)NC(=O)[C@H](Cc1c[nH]cn1)NC(=O)CNC(=O)[C@@H](NC(=O)[C@H](C)NC(=O)[C@H](Cc1c[nH]c2ccccc12)NC(=O)[C@H](CCC(N)=O)NC(=O)CCCCCNC(=O)CN1CCN(CC(=O)O)CCN(CC(=O)O)CC1)C(C)C)C(N)=O [gallium-68 labelled] — metabolite share (radio-HPLC; fetal bovine serum; 120 min, 37 °C): 10.8%
CSCC[C@H](NC(=O)[C@H](CC(C)C)NC(=O)[C@H](Cc1c[nH]cn1)NC(=O)CNC(=O)[C@@H](NC(=O)[C@H](C)NC(=O)[C@H](Cc1c[nH]c2ccccc12)NC(=O)[C@H](CCC(N)=O)NC(=O)CCCCCNC(=O)CNC(=O)CNC(=O)CNC(=O)CSC(C)=O)C(C)C)C(N)=O [technetium-99m labelled] — tissue uptake (Swiss mouse, blood; intravenous, 18.5 MBq, 90 min): 0.12 ± 0.03 %ID/g
C[C@H](NC(=O)CNC(=O)[C@H](CCC(=O)O)NC(=O)[C@H](CCC(=O)O)NC(=O)[C@H](CC(=O)O)NC(=O)[C@@H]1CCCN1C(=O)[C@H](Cc1ccccc1)NC(=O)[C@H](CS)NC(=O)[C@H](Cc1ccc(O)cc1)NC(=O)CCCNC(=O)CNC(=O)CNC(=O)[C@@H](C)NC(=O)CN)C(=O)N[C@@H](CS)C(=O)N[C@@H](Cc1ccc(O)cc1)C(N)=O [technetium-99m labelled] — radiochemical purity (radio-HPLC; human serum; 4 h, 37 °C, serum mix 1:10 v/v): 92.81 ± 0.32%
N=C(N)NCCC[C@@H]1NC(=O)[C@H](CCCCNC(=O)CC[C@H](NC(=O)CCOCCOCCOCCOCCNC(=O)CN2CCN(CC(=O)O)CCN(CC(=O)O)CCN(CC(=O)O)CC2)C(=O)NCCCC[C@@H]2NC(=O)[C@@H](Cc3ccccc3)NC(=O)[C@H](CC(=O)O)NC(=O)CNC(=O)[C@H](CCCNC(=N)N)NC2=O)NC(=O)[C@@H](Cc2ccccc2)NC(=O)[C@H](CC(=O)O)NC(=O)CNC1=O [indium-111 labelled] — tissue uptake (female athymic nude mice, liver; intravenous, 3 µCi, 72 h, U-87 MG glioma xenograft): 0.78 ± 0.34 %ID/g
CCCC[C@H](NC(=O)CCCCCCCNC(=O)c1ccc(NN)nc1)C(=O)N[C@H]1CC(=O)NCCCC[C@@H](C(N)=O)NC(=O)[C@H](Cc2c[nH]c3ccccc23)NC(=O)[C@H](CCCNC(=N)N)NC(=O)[C@@H](Cc2ccccc2)NC(=O)[C@H](Cc2c[nH]cn2)NC1=O [technetium-99m labelled] — renal uptake reduction (B16/F1 melanoma-bearing C57 mice, kidney; dose not given, 2 h post-injection, together with: L-lysine 12 mg): 33%
N=C(N)NCCC[C@@H]1NC(=O)[C@H](CCCCNC(=O)CNC(=O)CNC(=O)CNC(=O)CC[C@H](NC(=O)CCOCCOCCOCCOCCNC(=O)CC[C@H](NC(=O)CN2CCN(CC(=O)O)CCN(CC(=O)O)CCN(CC(=O)O)CC2)C(=O)NCCOCCOCCOCCOCCC(=O)N[C@@H](CCC(=O)NCC(=O)NCC(=O)NCC(=O)NCCCC[C@@H]2NC(=O)[C@@H](Cc3ccccc3)NC(=O)[C@H](CC(=O)O)NC(=O)CNC(=O)[C@H](CCCNC(=N)N)NC2=O)C(=O)NCC(=O)NCC(=O)NCC(=O)NCCCC[C@@H]2NC(=O)[C@@H](Cc3ccccc3)NC(=O)[C@H](CC(=O)O)NC(=O)CNC(=O)[C@H](CCCNC(=N)N)NC2=O)C(=O)NCC(=O)NCC(=O)NCC(=O)NCCCC[C@@H]2NC(=O)[C@@H](Cc3ccccc3)NC(=O)[C@H](CC(=O)O)NC(=O)CNC(=O)[C@H](CCCNC(=N)N)NC2=O)NC(=O)[C@@H](Cc2ccccc2)NC(=O)[C@H](CC(=O)O)NC(=O)CNC1=O [indium-111 labelled] — tissue uptake (female athymic nude mice, liver; intravenous, 3 µCi, 4 h, U-87 MG glioma xenograft): 1.98 ± 0.39 %ID/g
CCCC[C@H](NC(=O)COCCOCCNC(=O)c1ccc(NN)nc1)C(=O)N[C@H]1CC(=O)NCCCC[C@@H](C(N)=O)NC(=O)[C@H](Cc2c[nH]c3ccccc23)NC(=O)[C@H](CCCNC(=N)N)NC(=O)[C@@H](Cc2ccccc2)NC(=O)[C@H](Cc2c[nH]cn2)NC1=O [technetium-99m labelled] — tissue uptake (C57 mouse, female, B16/F1 melanoma, lung; intravenous, 0.037 MBq, 2 h): 0.27 ± 0.12 %ID/g
COc1cc(/C=C(\C#N)C(=O)Nc2nnc(C(F)(F)F)s2)ccc1OC(=O)N1CCN(C(=O)CCCC(=O)NCCCC[C@@H]2NC(=O)[C@@H](Cc3ccc(O)cc3)NC(=O)[C@H](CC(=O)O)NC(=O)CNC(=O)[C@H](CCCNC(=N)N)NC2=O)CC1 — chemical stability (phosphate buffer; pH 7.4, 37 °C): stable

Some of these lines once more:
N=C(N)NCCC[C@@H]1NC(=O)[C@H](CCCCNC(=O)CCOCCOCCOCCOCCNC(=O)CC[C@H](NC(=O)CCOCCOCCOCCOCCNC(=O)CC[C@H](NC(=O)CN2CCN(CC(=O)O)CCN(CC(=O)O)CCN(CC(=O)O)CC2)C(=O)NCCOCCOCCOCCOCCC(=O)N[C@@H](CCC(=O)NCCOCCOCCOCCOCCC(=O)NCCCC[C@@H]2NC(=O)[C@@H](Cc3ccccc3)NC(=O)[C@H](CC(=O)O)NC(=O)CNC(=O)[C@H](CCCNC(=N)N)NC2=O)C(=O)NCCOCCOCCOCCOCCC(=O)NCCCC[C@@H]2NC(=O)[C@@H](Cc3ccccc3)NC(=O)[C@H](CC(=O)O)NC(=O)CNC(=O)[C@H](CCCNC(=N)N)NC2=O)C(=O)NCCOCCOCCOCCOCCC(=O)NCCCC[C@@H]2NC(=O)[C@@H](Cc3ccccc3)NC(=O)[C@H](CC(=O)O)NC(=O)CNC(=O)[C@H](CCCNC(=N)N)NC2=O)NC(=O)[C@@H](Cc2ccccc2)NC(=O)[C@H](CC(=O)O)NC(=O)CNC1=O [indium-111 labelled] — tissue uptake (athymic nude mice, female, U-87 MG glioma xenograft, U-87 MG tumour; intravenous, 3 µCi, 24 h): 6.86 ± 1.87 %ID/g
